Measurements from different studies.
Parts stem from different laboratories: compare values within a part only. Positions count from the first letter of the parent shown.

Series 1
Target: CCND1, cyclin fold, Cln2 fusion (human)
Technique: yeast growth competition, sequencing
Medium: yeast
Notes: weak parent motif
Relative to: not given
Reading: higher = stronger binding
Starting sequence: CDC6 docking peptide (human); TLKGRRLVFDNQL
Variant | normalised enrichment score
V8D | 0.99
L2Y | 0.485
R5A L7A | 0.19
Q12G | 1.19
R6T | 0.324
K3H | -0.0941
L7V | -0.0558
G4C | 1.27
L2P | 0.393
V8C | 0.913
L7Y | 0.455
L2C | 0.697
V8E | 0.809
G4Y | -0.121
L2W | 0.728
D10E | 0.122
L7Q | 0.198
L7C | -0.411
F9K | 0.414
L13F | 0.429
F9I | 0.124
G4S | -0.854
L2A | -0.191
L13W | 0.908
R6Q | 0.511

Series 2
Target: Histone acetyltransferase KAT6A, winged helix 2, GST fusion (KAT6A, Homo sapiens, UniProt Q92794, residues 85-181)
Technique: protein binding microarray
Form: double-stranded DNA, one strand shown
Medium: in vitro
Concentration: not given
Notes: 8-mer, flanks averaged, mean of 2 arrays, mostly near background
Relative to: not given
Reading: higher = stronger binding
Construct (chain): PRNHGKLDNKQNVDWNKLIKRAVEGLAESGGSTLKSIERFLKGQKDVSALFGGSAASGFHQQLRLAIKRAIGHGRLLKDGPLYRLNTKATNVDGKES
Sequence | E-score
CGACAAAA | 0.187
CTAAGAAC | 0.107
ATCGGCCG | -0.00245
GTGCGTGA | 0.163
AAGGGGAC | -0.0824
AAGGAGAT | -0.0922
AGGCCTGG | -0.094
AACCACCA | -0.122
ACGCTGTA | 0.0534
CCATACGA | -0.139
CACTCACA | -0.0452
AGGCCTTA | -0.217
ACCCGGGG | 0.111
CAAAGCTG | 0.0794
ACAGTGTA | -0.0152
TGCAAAAA | 0.0549
AATGCCAC | 0.0722
CGCATAAG | -0.0145
TATCGTCA | -0.000525
GGTAGAGA | -0.11
CCCCACCA | 0.217
CTGTGGCA | 0.0466
CAGATCAA | 0.0364
CTGCTACC | 0.189
CTTCTCGC | -0.0788

Series 3
Target: ABI1, truncated, D143A, DHFR fusion (Arabidopsis thaliana)
Technique: DHFR PCA, deep sequencing
Medium: yeast
Notes: methotrexate growth selection, single substitutions
Added: (+)-ABA 4.8 µM
Relative to: wild-type fitted maximum
Reading: higher = stronger binding
Starting sequence: PYL1, truncated, DHFR fusion (Arabidopsis thaliana); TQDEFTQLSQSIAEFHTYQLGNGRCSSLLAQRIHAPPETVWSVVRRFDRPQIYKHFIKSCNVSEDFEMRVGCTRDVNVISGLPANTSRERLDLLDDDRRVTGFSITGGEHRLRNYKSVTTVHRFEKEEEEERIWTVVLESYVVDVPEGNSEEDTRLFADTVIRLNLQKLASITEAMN
Variant | relative binding score [%]
T17K | 49
L166Q | 0.756
N177G | 83.1
Q31A | -0.499
C72G | 32.9
D159V | -3.84
S27E | 7.6
F124S | 48.2
D65G | 71.1
E14W | 5.67
L91T | -2.72
Y18D | 16.3
I57C | 6.25
N85F | 65.1
R88P | 0.99

Series 4
Target: RING finger protein unkempt homolog, zinc fingers 1-6, GST-SBP tag (UNK, Homo sapiens, UniProt Q9C0B0, residues 30-357)
Technique: RNA Bind-n-Seq
Form: RNA
Medium: in vitro
Concentration: not given
Notes: RNA with constant flanks, ends assumed
Relative to: input RNA pool
Reading: higher = stronger binding
Target sequence (chain): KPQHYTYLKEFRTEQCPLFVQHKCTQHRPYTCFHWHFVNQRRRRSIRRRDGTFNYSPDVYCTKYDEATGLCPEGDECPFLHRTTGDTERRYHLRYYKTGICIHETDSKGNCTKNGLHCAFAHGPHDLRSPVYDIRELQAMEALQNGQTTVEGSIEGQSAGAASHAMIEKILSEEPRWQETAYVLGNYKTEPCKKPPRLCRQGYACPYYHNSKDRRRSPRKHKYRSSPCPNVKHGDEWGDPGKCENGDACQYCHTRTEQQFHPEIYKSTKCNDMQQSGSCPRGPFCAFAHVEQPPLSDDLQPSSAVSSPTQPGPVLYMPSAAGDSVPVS
Sequence | bound/input enrichment
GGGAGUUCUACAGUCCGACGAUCGCCCUCAAUUUUUCUGUGUUCUACUAUGAGAUCCAGAAUGCACCAGAGCAAGCCUGCCUCUCCGCCAAACAAGCCUUCGAUGAUGCUAUAGCUGAGCUGGACACAUUAAACGAGGAUUCCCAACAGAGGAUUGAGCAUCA | 0.227 ratio
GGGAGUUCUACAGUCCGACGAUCAUGUGAAUAAAAUGUACAAAUUUGUUGUGUUUUUUUAUGUUCUGAGGCUGACUUCCCGGUCUCCGAUUAAUUUUUUAGGAAGGCCUUGCAUGCCAUCAAAAGUACAUUUGGCUGUGGUUUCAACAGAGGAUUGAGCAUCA | 0.516 ratio
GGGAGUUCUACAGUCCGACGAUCGGUAGUGAACAAUGACCUCAUUUUAUUUUCUAUGUUAGUUAUUUAUUUCAAAAUUUACAUUUCCGUUUAUUUUCGUCUGUAAAGCGUAUGUUUCGCACUGCUCUUUUACUCUGAGGGUUUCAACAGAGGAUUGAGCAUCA | 36.2 ratio
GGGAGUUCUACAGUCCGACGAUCCGAUUAGUUUAAGCUGUUUCAUGUAUUUUACUUUAAACCUUAUUUUGGCAACUUAUCUUGUCCGCAUUAUAAAAACUUACUUAAAAUACUAUUUUACUACAAAACAAAACAUUUAUUACACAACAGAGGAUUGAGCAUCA | 5.51 ratio
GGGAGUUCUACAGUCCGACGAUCAUCCCUGAGAAUGCUAUAUUUGGUCCCUGUGUCCUGAGCCAUACUUCCCUAUAUGACAGCACCGCUUUCAUAGCUCUCAAGUCUACUGACAAGAGAACAGUACCGUAUAUCUUUCGGGUACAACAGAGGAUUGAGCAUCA | 0.108 ratio
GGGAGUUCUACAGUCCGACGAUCCGCAACGUGAUCGUGGAGCGCAGGAACCUGAUCACCGUGUGCAGGUUCUCUGUGAAAACCCUGCCCGAGAAGUACACAGCAGAACCCAUUGAUGACUCUUCCGAGGAGUUUGUUAAUUUCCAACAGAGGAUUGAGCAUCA | 0.0812 ratio
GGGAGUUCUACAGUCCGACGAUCUCAUCAAAGAUAUUGUCUGCUGAAAGUUCAUCUAGUACAGAAACUUCGGUGGUCAGCAGCCGUUCAGUUUCUAAUGCCACUUUUUCUGGAACUCCUCCACAGCCUACAAGUCGGAGACAACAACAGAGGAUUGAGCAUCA | 0.145 ratio

Series 5
Target: Sal-like protein 4, full length isoform B (SALL4, Homo sapiens, UniProt Q9UJQ4-2, residues 1-616)
Technique: universal PBM
Form: double-stranded DNA, one strand shown
Medium: in vitro
Concentration: not given
Notes: 8-mer, flanks averaged, mean of replicates
Reading: higher = stronger binding
Residues (chain): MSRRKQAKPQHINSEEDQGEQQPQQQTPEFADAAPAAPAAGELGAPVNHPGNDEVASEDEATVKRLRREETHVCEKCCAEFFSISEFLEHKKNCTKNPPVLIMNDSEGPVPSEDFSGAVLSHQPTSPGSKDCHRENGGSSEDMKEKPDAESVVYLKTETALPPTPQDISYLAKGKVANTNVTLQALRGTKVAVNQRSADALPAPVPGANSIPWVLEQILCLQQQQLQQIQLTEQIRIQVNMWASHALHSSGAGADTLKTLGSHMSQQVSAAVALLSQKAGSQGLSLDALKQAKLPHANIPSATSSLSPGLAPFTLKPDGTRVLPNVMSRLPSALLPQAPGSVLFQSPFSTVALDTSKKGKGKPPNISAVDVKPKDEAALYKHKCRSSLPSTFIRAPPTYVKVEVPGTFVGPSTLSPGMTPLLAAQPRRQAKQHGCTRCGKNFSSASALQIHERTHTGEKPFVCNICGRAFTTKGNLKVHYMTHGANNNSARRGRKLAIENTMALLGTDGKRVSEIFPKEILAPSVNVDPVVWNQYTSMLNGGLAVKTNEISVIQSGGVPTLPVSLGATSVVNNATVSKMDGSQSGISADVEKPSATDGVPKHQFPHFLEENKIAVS
Sequence | E-score
CGTAAGAG | -0.111
CCATGCTA | 0.0219
GCGGATGA | -0.0118
AAAGCTGT | 0.119
AAGTCCAA | 0.148
AGTGCGCG | -0.28
CCATTTAA | 0.189
AGGAGACT | -0.0444
CTTCCGGC | -0.15
AAAACGTT | 0.178
GTTCCGCA | -0.102
CCCGATGA | 0.0415
CCCCCGCC | -0.221
CTTGATAA | 0.219
GTCGCCAA | -0.13
AGAGCTCG | -0.12
ACGGGAAA | -0.115
GGAAAGGA | -0.131
GTGTGGCA | -0.157
GGACTGAC | -0.307
AACTCCAC | 0.0637
AGTAGCAT | 0.0626
AACAAGTC | 0.0238
AGTTGACG | -0.00323
TAGCTCCA | -0.0401

A few entries again (series 5):
Sequence | E-score
CCCCCGCC | -0.221
ACGGGAAA | -0.115
AACTCCAC | 0.0637
AAAGCTGT | 0.119
AAAACGTT | 0.178
CTTCCGGC | -0.15
AGAGCTCG | -0.12
GTTCCGCA | -0.102
AGTTGACG | -0.00323
CCCGATGA | 0.0415
CCATGCTA | 0.0219
